Results pooled from the literature.
Compare with care: the assays were run in different laboratories.
Technique: steady-state kinetics
B1: enzyme N1029G (Limosilactobacillus reuteri, UniProt Q5SBN3); chain INGQQYYIDPTTGQPRKNFLLQNGNDWIYFDKDTGAGTNALKLQFDKGTISADEQYRRGNEAYSYDDKSIENVNGYLTADTWYRPKQILKDGTTWTDSKETDMRPILMVWWPNTVTQAYYLNYMKQYGNLLPASLPSFSTDADSAELNHYSELVQQNIEKRISETGSTDWLRTLMHEFVTKNSMWNKDSENVDYGGLQLQGGFLKYVNSDLTKYANSDWRLMNRTATNIDGKNYGGAEFLLANDIDNSNPVVQAEELNWLYYLMNFGTITGNNPEANFDGIRVDAVDGVDVDLLSIARDYFNAAYNMEQSDASANKHINILEDWGWDDPAYVNKIGNPQLTMDDRLRNAIMDTLSGAPDKNQALNKLITQSLVNRANDNTENAVIPSYNFVRAHDSNAQDQIRQAIQAATGKPYGEFNLDDEKKGMEAYINDQNSTNKKWNLYNMPSAYTILLTNKDSVPRVYYGDLYQDGGQYMEHKTRYFDTITNLLKTRVKYVAGGQTMSVDKNGILTNVRFGKGAMNATDTGTDETRTEGIGVVISNNTNLKLNDGESVVLHMGAAHKNQKYRAVILTTEDGVKNYTNDTDAPVAYTDANGDLHFTNTNLDGQQYTAVRGYANPDVTGYLAVWVPAGAADDQDARTAPSDEAHTTKTAYRSNAALDSNVIYEGFSNFIYWPTTESERTNVRIAQNADLFKSWGITTFELAPQYNSSKDGTFLDSIIDNGYAFTDRYDLGMSTPNKYGSDEDLRNALQALHKAGLQAIADWVPDQIYNLPGKEAVTVTRSDDHGTTWEVSPIKNVVYITNTIGGGEYQKKYGGEFLDTLQKEYPQLFSQVYPVTQTTIDPSVKIKEWSAKYFNGTNILHRGAGYVLRSNDGKYYNLGTSTQQFLPSQLSVQDNEGYGFVKEGNNYHYYDENKQMVKDAFIQDSVGNWYYFDKNGNMVANQSPVEISSNGASGTYLFLNNGTSFRSGLVKTDAGTYYYDGDGRMVRNQTVSDGAMTYVLDENGKLVSESFDSSATEAHPLKPGDLNGQK
B2: enzyme E217L/L163H/N249W (Thermobifida fusca, UniProt Q47RK4); chain MTDVYILDAVRTPFGRYGGALSGIRPDDLAAHVLRALAERSPGLDPAAVDDVFFGDANGAGEDNRNVARMAALLAGWPTSVPGVTLNRLCGSGMESVIAANRAIAVGDASLAVAGGVESMSRAPWVLPKPAQGFPTGHETLYSTTLGWRMVNPAMPEQWTVSHGESTEQVAATYGISRAEQDAFALRSHERAARAWAEGVFDAEITQIPGAELERDLSIRETSAEKLAALKPAFRPDGTITAGNASPLWDGAAALLIGDAAAAERVGREPLARIVSRGVAAVDPDVFGIGPVQAAEIALRRAGIGWDDLSVVELNEAFAAQSLACLKLWPDLDPEIVNPNGGAIAIGHPLGASGARIVGTLAHELHRRGGGWGLAAICIGVGQGLAVVLHR
B3: enzyme H376N (Acetivibrio thermocellus, UniProt A3DJ38); chain MKLTIPELSLVVLIGSSGSGKSTFAKKHFKPTEVISSDFCRGLVSDDENDQTVTGAAFDVLHYIVSKRLQLGKLTVVDATNVQESARKPLIEIAKDYHCFPVAVVFNLPEKVCQERNKNRTDRQVEEYVIRKHTQQLKKSIKGLQREGFRYVYILNSPEEVEEVVFERQPLWNNKKDEHGPFDIIGDIHGCYDELKMLLEKLGYLIEEVEGGVGSGKYRVTHPEGRKVLFLGDLVDRGPKITEVLKLVMGMVKSGIALCVPGNHDVKLLRKLNGRDVQITHGLDRTLEQLAKEPQEFIEEVKAFIDGLVSHYVLDDGKLVVAHAGMKEEFQGRGSGKVREFALYGETTGETDEYGLPVRYDWASDYRGKALVVYGNTPQAEVLKVNNTINIDTGCVFGGKLTAYRYPEREIVDVKALKTYYEPAKPFLPKEDMAERFEARTDNDILDINDVLGKKIITTRLMSSITIHEENSIAALEVMSRFAADPHWLIYLPPTMSPCETSKKEGMLEHPIEAFEYFRTRGVGKVVCEQKHMGSRAVVIVCKDSQVAEKRFGVLDGTAGICYTRTGRHFFDDMQLEAELIDRVRKVLDKSGFWGDFNTDWVCLDCELMPWSAKAQKLLEEQYSAVGISGRVVLDEAVKLLKQASLNKTVSFDVSRQTSGKNADINELLQRFTERSEMMQKYVEAYRKYCWPVNSIDDLKLAPFHILATEGKVHSDKNHIWHMDTIAKYCTQDDSLIMATNHILVDVTDAESVDKGIKWWEDLTASGGEGMVVKPYDFIVKNGRELLQPAVKCRGREYLRIIYGPEYTMDENIERLRNRAVGKKRSLALREFSLGMEALERFVRNEPLYRVHECVFGVLALESEPVDPRL
B4: CYP26A1 (Homo sapiens, UniProt O43174); chain MGLPALLASALCTFVLPLLLFLAAIKLWDLYCVSGRDRSCALPLPPGTMGFPFFGETLQMVLQRRKFLQMKRRKYGFIYKTHLFGRPTVRVMGADNVRRILLGEHRLVSVHWPASVRTILGSGCLSNLHDSSHKQRKKVIMRAFSREALECYVPVITEEVGSSLEQWLSCGERGLLVYPEVKRLMFRIAMRILLGCEPQLAGDGDSEQQLVEAFEEMTRNLFSLPIDVPFSGLYRGMKARNLIHARIEQNIRAKICGLRASEAGQGCKDALQLLIEHSWERGERLDMQALKQSSTELLFGGHETTASAATSLITYLGLYPHVLQKVREELKSKGLLCKSNQDNKLDMEILEQLKYIGCVIKETLRLNPPVPGGFRVALKTFELNGYQIPKGWNVIYSICDTHDVAEIFTNKEEFNPDRFMLPHPEDASRFSFIPFGGGLRSCVGKEFAKILLKIFTVELARHCDWQLLNGPPTMKTSPTVYPVDNLPARFTHFHGEI
B5: nitrilase (Rhodococcus rhodochrous, UniProt A4LA85); chain MVEYTNTFKVAAVQAQPVWFDAAKTVDKTVSIIAEAARNGCELVAFPEVFIPGYPYHIWVDSPLAGMAKFAVRYHENSLTMDSPHVQRLLDAARDHNIAVVVGISERDGGSLYMTQLIIDADGQLVARRRKLKPTHVERSVYGEGNGSDISVYDMPFARLGALNCWEHFQTLTKYAMYSMHEQVHVASWPGMSLYQPEVPAFGVDAQLTATRMYALEGQTFVVCTTQVVTPEAHEFFCENEEQRKLIGRGGGFARIIGPDGRDLATPLAEDEEGILYADIDLSAITLAKQAADPVGHYSRPDVLSLNFNQRRTTPVNTPLSTIHATHTFVPQFGALDGVRELNGADEQRALPSTHSDETDRATASI
B6: enzyme (Thermotoga maritima, UniProt Q9WZV7); chain VENVTESKELERLKRIDRMKTEFIANISHELRTPLTAIKAYAETIYNSLGELDLSTLKEFLEVIIDQSNHLENLLNELLDFSRLERKSLQINREKVDLCDLVESAVNAIKEFASSHNVNVLFESNVPCPVEAYIDPTRIRQVLLNLLNNGVKYSKKDAPDKYVKVILDEKDGGVLIIVEDNGIGIPDHAKDRIFEQFYRVDSSLTYEVPGTGLGLAITKEIVELHGGRIWVESEVGKGSRFFVWIPKDRAGEDNRQDN
B7: protein (Leishmania infantum, UniProt A4I093); chain MSDNPHSLHPLSSDSTSQALHSSTKPPATPHEGEFHSVRDSNVVEPTEANGKKSHVGPHLGSRMRIYEYSIEHNDAFWAEIARRDFYWKTTWPDDQHVKSYNFDKSKGPIFVKWFEGAVTNVCYNALDRHLPAHKDRVCFYFEGNDPSVTEAVTYGSMYTRVVELANVLKYQYGIAKGDRVGLYLPMIPFAAVAMLACARIGAVITVIFGGFSAQALSSRLKDAQTKLLITADASARGTKPIPLKDVADEALKECEEEGMSIACLVAENMNRQSCKMKEGRDTWYGDALARLTPEQHEECPVEWMDAEDVLFLLYTSGSTGKPKAIVHTTAGYMVYASTTFMYSFDYHMDDVYFCTADIGWITGHSYVVYGPMIHCATSVLFEGVPNYPDYSRWWQLVEKYKVSILYTAPTAIRSLMQAGDDYVKVGNRSTLRVLGSVGEPINVEAWKWLRDVGGEGHCDVSDTWWQTETGGHMITPMPGCTPMKPGSATLPFFGVQPVILDPMKLHEKQGPAEGLLAIRAPWPGMARTIYGDHARFEKTYFGVDGYYMTGDGARRDSDGYYWITGRVDDVLNVSGHRIGTSEIEDAVNTHPAVVESAVVGFPHNIKGEGIYVFLTFRQGTEVTPELLAAVKATVRKVIGPLATPDVMQVARVGLPKTRSGKIVRRILRKVSAGQYTELGDTSTLANPDVVEDLIAEHQRLCSQN
B8: Lxyl-p1-1 (Lentinula edodes, UniProt G8GLN9); chain YFSGLGLGSERSIFRRDLNSTGDESNSTQWPAPLANGGKSWASAFKKAKSTVAEMTVEELANITSGVIGLCVGVTGAVTRLGIPELCLQDGPIGPRGVHGSSQFPAGLTVAATWDRTLMYARARGMGQEFHDQGVHIALAPVTGGPLGRTPLNGRGWEGTFADPYACGEASYQSVKGLTDAGVATVSKHWIAYEQETSRNLYIEFDGVSQADIQLPISSNVDDLTMHELYMWSFAEAVRAGTNHIMCSYNRINNTHSCNNAKGLNQLLKTELNFQGGVVSDWGGQWDSVLSAENGLDVGMPGEGFLGELGDFWGTTLADLINNGTVSEDLVRDKVVRLLTGYYYLGQDINPPPPFVYNTIGAPTLNATSGYRNVRKPGTAELIKEIGSASVTLLKNTGSLPLKHPQRIAVLGNDATYNVLGPNACGLANSACDIDNLNGTLTTGGGSGSALSPYTITPLEALQKRAIEDNAEIAAVVANSNTTTGAEDAIAALLPDADVTFVFLNRYSEEGADAPDFSLGGDGDNLMDLAVTYSSNVVVVIHTTGVVDIEKWADNPNVTAILVAYLPGQEAGNSLVPVLYGDVAPSGKLPWTWGKSIDDYVPNGVVYTDAYSPQSNFTEGVFIDYRWFDKMGITPRYEFGFGLSYTTFTYSNLIVDHGRWAKDYSSVMETAEPFAEWDGTNSLYDVIFTVFATITNTGNLTGSEVAQLYISIPGDNQPVRQLRGFDKIKDLPVGDSAVVTFPIRRKDVSSWSVVDQLWYVPNGDFLISVGGSSRDLPLNTTWTP
UniProt P22303, sequence (whole entry, looked up): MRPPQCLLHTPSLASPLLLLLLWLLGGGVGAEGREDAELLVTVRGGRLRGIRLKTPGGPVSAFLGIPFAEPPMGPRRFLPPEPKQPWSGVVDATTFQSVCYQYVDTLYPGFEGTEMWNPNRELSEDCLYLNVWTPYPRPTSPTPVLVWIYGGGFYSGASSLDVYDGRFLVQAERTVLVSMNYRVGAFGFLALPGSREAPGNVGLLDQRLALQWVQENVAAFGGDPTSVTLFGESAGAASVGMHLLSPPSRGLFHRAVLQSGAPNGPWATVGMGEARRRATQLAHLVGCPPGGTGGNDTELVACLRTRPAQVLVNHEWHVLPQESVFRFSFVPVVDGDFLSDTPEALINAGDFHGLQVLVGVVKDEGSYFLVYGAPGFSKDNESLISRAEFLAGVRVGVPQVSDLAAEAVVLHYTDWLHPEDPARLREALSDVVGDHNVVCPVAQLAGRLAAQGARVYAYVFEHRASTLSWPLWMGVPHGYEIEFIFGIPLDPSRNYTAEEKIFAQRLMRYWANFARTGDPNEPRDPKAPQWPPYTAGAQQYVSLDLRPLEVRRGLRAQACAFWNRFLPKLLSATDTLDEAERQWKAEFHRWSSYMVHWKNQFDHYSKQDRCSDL
UniProt P22088, sequence (whole entry, looked up): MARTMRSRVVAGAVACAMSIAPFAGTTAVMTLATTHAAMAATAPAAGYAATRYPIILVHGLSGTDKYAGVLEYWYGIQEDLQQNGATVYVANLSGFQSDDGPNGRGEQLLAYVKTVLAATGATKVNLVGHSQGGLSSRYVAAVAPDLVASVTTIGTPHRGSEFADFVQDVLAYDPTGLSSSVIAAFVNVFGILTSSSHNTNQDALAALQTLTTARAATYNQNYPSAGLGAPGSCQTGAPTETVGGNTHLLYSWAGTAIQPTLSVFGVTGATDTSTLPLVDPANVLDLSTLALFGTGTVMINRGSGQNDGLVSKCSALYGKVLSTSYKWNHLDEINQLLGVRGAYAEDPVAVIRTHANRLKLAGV
UniProt E9RAH5, sequence (whole entry, looked up): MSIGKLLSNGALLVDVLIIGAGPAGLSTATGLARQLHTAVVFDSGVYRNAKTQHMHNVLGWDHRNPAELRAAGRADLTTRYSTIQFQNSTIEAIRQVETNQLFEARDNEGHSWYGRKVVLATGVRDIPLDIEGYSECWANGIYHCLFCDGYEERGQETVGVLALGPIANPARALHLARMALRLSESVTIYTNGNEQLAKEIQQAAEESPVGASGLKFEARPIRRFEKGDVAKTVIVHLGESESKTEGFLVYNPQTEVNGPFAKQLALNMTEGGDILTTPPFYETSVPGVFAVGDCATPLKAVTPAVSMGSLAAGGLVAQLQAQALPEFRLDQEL
UniProt O43529, sequence (whole entry, looked up): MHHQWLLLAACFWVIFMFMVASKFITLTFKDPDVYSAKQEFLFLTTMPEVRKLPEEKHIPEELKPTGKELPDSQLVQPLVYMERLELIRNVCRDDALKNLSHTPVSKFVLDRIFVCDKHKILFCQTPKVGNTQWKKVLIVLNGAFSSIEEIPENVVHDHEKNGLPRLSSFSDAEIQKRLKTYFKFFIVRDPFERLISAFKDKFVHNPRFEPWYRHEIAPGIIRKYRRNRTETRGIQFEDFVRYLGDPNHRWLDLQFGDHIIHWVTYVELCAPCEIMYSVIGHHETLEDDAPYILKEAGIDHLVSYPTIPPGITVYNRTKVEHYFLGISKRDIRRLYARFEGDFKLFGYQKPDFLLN
UniProt P39045, sequence (whole entry, looked up): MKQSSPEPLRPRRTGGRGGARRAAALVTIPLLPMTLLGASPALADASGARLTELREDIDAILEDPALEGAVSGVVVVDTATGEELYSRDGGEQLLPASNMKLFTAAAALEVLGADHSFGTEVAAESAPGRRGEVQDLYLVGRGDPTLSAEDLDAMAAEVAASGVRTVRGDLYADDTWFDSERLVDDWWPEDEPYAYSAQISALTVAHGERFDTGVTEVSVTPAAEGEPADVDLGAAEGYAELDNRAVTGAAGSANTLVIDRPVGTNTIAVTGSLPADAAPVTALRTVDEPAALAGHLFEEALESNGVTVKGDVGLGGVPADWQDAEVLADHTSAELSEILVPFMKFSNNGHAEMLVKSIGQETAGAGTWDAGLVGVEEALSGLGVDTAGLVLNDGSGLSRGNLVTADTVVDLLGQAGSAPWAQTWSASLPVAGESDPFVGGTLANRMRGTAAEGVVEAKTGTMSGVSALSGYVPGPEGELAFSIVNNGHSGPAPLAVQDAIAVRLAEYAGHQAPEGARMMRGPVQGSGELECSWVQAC

With `CHST10 (Homo sapiens, UniProt O43529)` the Km was 210 µM ([H][C@@]12CC=C3C[C@@H](O[C@@H]4O[C@H](C(=O)O)[C@@H](O)[C@H](O)[C@H]4O)CC[C@]3(C)[C@@]1([H])CC[C@]1(C)C(=O)CC[C@@]21[H]; pH 7.2, 37 °C).
`gliT (Aspergillus fumigatus, UniProt E9RAH5)` has a Km of 198 µM (CC(=O)NC1=C(S)/C(=C\S)NC1=O; pH 6.5).
For `B1 (enzyme N1029G)`, the Km was 2700 µM (OC[C@H]1O[C@@](CO)(O[C@H]2O[C@H](CO)[C@@H](O)[C@H](O)[C@H]2O)[C@@H](O)[C@@H]1O; pH 4.7, 37 °C).
`lip (Burkholderia cepacia, UniProt P22088)` has a Km of 2070 µM (CCCCCCCCCCCCCCCC(=O)Oc1ccc([N+](=O)[O-])cc1; pH 7, 60 °C).
`B2 (enzyme E217L/L163H/N249W)` has a Km of 2180 µM (CC(=O)SCCNC(=O)CCNC(=O)[C@H](O)C(C)(C)COP(=O)(O)OP(=O)(O)OC[C@H]1O[C@@H](n2cnc3c(N)ncnc32)[C@H](O)[C@@H]1OP(=O)(O)O; pH 7.4, 37 °C).
`ACHE (Homo sapiens, UniProt P22303)` has a Km of 2000 µM (CC(=O)SCC[N+](C)(C)C; pH 7.4).
With `Cj1427c (Campylobacter jejuni, UniProt Q0P8I7)` the Km was 63 µM (Nc1nc2c(ncn2[C@@H]2O[C@H](COP(=O)(O)OP(=O)(O)O[C@H]3O[C@H]([C@H](O)CO)[C@@H](O)[C@H](O)[C@@H]3O)[C@@H](O)[C@H]2O)c(=O)[nH]1; pH 7.4, 30 °C, apparent).
`B3 (enzyme H376N)` gave a Km of 4700 µM (Nc1ncnc2c1ncn2[C@@H]1O[C@H](CO)[C@H]2OP(=O)(O)O[C@H]21; pH 7.5, 45 °C).
For `tgt C145V/P147N/T146V/V217G (Escherichia coli)`, the Km was 35 µM (Nc1nc2nc[nH]c2c(=O)[nH]1; pH 7.3, 37 °C).
`DD-peptidase R39 (Actinomadura sp. R39, UniProt P39045)` gave a Km of 300 µM (C[C@@H](NC(=O)c1ccccc1)C(=O)SCC(=O)O; pH 7.2, 30 °C, added: D-alanine 100 mM).
The Km of `protein (Brassica rapa, UniProt A0A0M7RFX0)` is reported as 0.248 µM (CSC(=S)NCc1c[nH]c2ccccc12; microsomes; pH 7.5, 30 °C, apparent, not purified, added: NADPH 1 mM).
`B4 (CYP26A1)` gave a Km of 0.05 µM (CC1=C(/C=C/C(C)=C/C=C/C(C)=C/C(=O)O)C(C)(C)CCC1; 37 °C, not purified).
For `B5 (nitrilase)`, the Km was 1530 µM (N#Cc1ccccn1; pH 7.5, 25 °C).
`B6 (enzyme)` gave a Km of 29 µM (C#CCSP(=O)(O)OP(=O)(O)OP(=O)(O)OC[C@H]1O[C@@H](n2cnc3c(N)ncnc32)[C@H](O)[C@@H]1O; apparent).
`B7 (protein)` gave a Km of 230 µM (Nc1ncnc2c1ncn2[C@@H]1O[C@H](COP(=O)(O)OP(=O)(O)OP(=O)(O)O)[C@@H](O)[C@H]1O; 37 °C, MgCl2 4 mM, mild substrate inhibition, apparent, added: CoA).
With `B8 (Lxyl-p1-1)` the Km was 570 µM ([H][C@]12[C@H](OC(=O)c3ccccc3)[C@]3(O)C[C@H](OC(=O)[C@H](O)[C@@H](NC(=O)c4ccccc4)c4ccccc4)C(C)=C([C@@H](O)C(=O)[C@]1(C)[C@@H](O[C@@H]1OC[C@@H](O)[C@H](O)[C@H]1O)C[C@@]1([H])OC[C@@]21OC(C)=O)C3(C)C).

Repeated from above:
With `Cj1427c (Campylobacter jejuni, UniProt Q0P8I7)` the Km was 63 µM (Nc1nc2c(ncn2[C@@H]2O[C@H](COP(=O)(O)OP(=O)(O)O[C@H]3O[C@H]([C@H](O)CO)[C@@H](O)[C@H](O)[C@@H]3O)[C@@H](O)[C@H]2O)c(=O)[nH]1; pH 7.4, 30 °C, apparent).
